# Published values collected from several papers.
# Each numbered part is a random draw from the data of one study; scales do not carry over between parts.

# Study 1
# Target: RNA binding protein fox-1 homolog 2, RRM domain, GST-SBP tag (RBFOX2, Homo sapiens, UniProt O43251-10, residues 100-194)
# Technique: RNA Bind-n-Seq
# Form: RNA
# Medium: in vitro
# Concentration: 365 nM
# Notes: natural RNA segment, single round, ends assumed
# Relative to: no-protein control
# Reading: higher = stronger binding
# All sequences stand within: GGGAGUUCUACAGUCCGACGAUC … UGGAAUUCUCGGGUGCCAA
Oligonucleotide,RBNS enrichment (R)
UGGCUCCUUUGGACCUACCCCUGUCCUUGCUGACUUGUGUUGCAUUGUAUUCCAAACGUGUUUACAGGUUCUCUUAAGCAAUGUUGUAUUUGCAGGCUUUUCUGAAUACC,0.386
AGACCUCAUCUCUAUCAAAAAAUAAAAAUUAGCUAGAUGUGGUGGCAUGAGCCUGUGUUCCCAGCUGCUUAGGAGGCUGAAGCAGGAGGAUUGAUUGAGCCUGCGAGGCC,4.66
AGAGGUCGUGGUACUUUUCAACGUGGCAGAGGGCGCUUUAACUUCAAAAAAUCAGGUAGCAGUCCUAAAUGGACUCAUGACAAAUACCAAGGGGAUGGGAUUGUUGAAGA,0.515
GUGCUGCAGGAAGCAAAACUGUAGGGUCCUGAGGACACCGUGAGCCAGCCAGGCCUGGCCGCUGGGCCUGACCGGCCCCCCAGCCCCUACACCCCGCUUCUCCCGGACUC,0.418
GCAUGGUGGCUGGGUUGGUGAUAUACAGUGCAGCAGAGCUGCCCUCAGACGUGGGACUGCAGAGUCUGUUUGGAUUUGACACGGGGAGUCCUUGCUGACCUCCUGUCUCC,0.503
UCGCCUGGAAAAAAGUGCCCAAGCUGCUGACGCAAAAAGAAAAAAAAAAAGAAAGAAAGAUGCUGCUCAUUUGCAUGCUCACUUACAUAUAUUUGCAUGUUCACUGACCC,6.11
UGGAUUGGGGAAGCAGCAUCCAUUUGGGGUUCUCCUGCCCAUCUCCCAAGGGGUGACCCUGCCCCUCAAAUUCAUGGUGUCCCCACCGUCUCAAUGUGAAUAGUCUCAGA,0.362
AGAACAUGAAAUGCUUCUUUCUCAGUUUAUUGGUUGAAUGUGUAUCUAUUUGAGUCUGGAAAUAACUAAUGUGUUUGAUAAUUAGUUUAGUUUGUGGCUUCAUGGAAACU,3.69
AUUUUUAAAAAGAGAGUGAAGGAACCAACACUGAUUUGUACAUAAUAAAAAUGUGUGUAUUAUAUAUAUAUAUUUUUUCCUCCUUGACAGUACUUGGUCACAAUAUCAAG,0.484
CCUCUUCUCUCGCAGCCCUGAUGGGGGAAAGGGAGUUGGGUACUGCUUGUGGUUUAGGUUCCCCUCUCCUUUUUUUCUUUUUAAUUCAAUUUGGAAUCAGAAAGCUGGAU,0.614
AGUGUGCGUGCGUUUGUGCCGAGCUUCUAUUUCAUAUUGCAAAUAUAAAUAAAGGAAGGCAGUUUACAUUCUGCUGGUCAGACCUUACGUUCUGGGAUGCGGGGUGGGGA,0.646
UUGUUUUGCUUAUUUUUAAAUUAACUGUUCAGGCUUUGGAUACUGCAGGCUUUAGAGGGAGAACCCAAAUUUUCAAUUAUGUUGGCUUUUUAUAAAGCUUGAGUUAUGUA,0.575

# Study 2
# Target: Phosphate system positive regulatory protein PHO4, full length, GST-tagged (PHO4, Saccharomyces cerevisiae, UniProt P07270, residues 1-312)
# Technique: competition protein-binding microarray
# Form: double-stranded DNA, one strand shown
# Medium: in vitro
# Concentration: 2 µM
# Notes: whole 60-bp probe, lowest competitor level
# Added: Cbf1 competitor, 0.05 µM
# Reading: higher = stronger binding
# All sequences stand within: … GTCTTGATTCGCTTGACGCTGCTG
# Construct (chain): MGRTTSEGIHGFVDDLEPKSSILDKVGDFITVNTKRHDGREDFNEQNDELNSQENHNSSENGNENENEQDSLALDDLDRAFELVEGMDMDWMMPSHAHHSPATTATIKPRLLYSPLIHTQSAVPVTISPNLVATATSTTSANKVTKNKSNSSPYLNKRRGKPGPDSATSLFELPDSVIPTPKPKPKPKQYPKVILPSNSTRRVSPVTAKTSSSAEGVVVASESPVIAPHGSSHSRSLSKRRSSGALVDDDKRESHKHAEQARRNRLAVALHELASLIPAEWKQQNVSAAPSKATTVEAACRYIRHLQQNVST
Oligonucleotide,fluorescence intensity
GTCCGGTTTCAGGAACACGTGTGGAAAATACAGGGC,17000 a.u.
TGCGCAACAACTTGCTTGGTGGGTGTATGTCTAGAA,3790 a.u.
CCAAAAACCCTACGGCATGTGGGATTGGGACACCTT,9530 a.u.
TTGGCCGTATCTGATCTTGTGCAGGGAGTAACCACT,3840 a.u.
GCACTTTCACTACTAGACGTGCTTTTAAAAAATTGT,7140 a.u.
TGCGCAACAACTTGGTGGGTGGGTGTATGTCTAGAA,5200 a.u.
TGCCAAAATCTGCCTCAGGTGACAAGCCATTTTTCC,3140 a.u.
TGTTCAAAAAGCCATCACGTGGAACCCCGAAAAAAA,14500 a.u.
TTAAGTCTATACCTTCACGTGACTCGCTAGTACCCG,10900 a.u.
CATTGGGTATACCATCACGTGTACTATCAAATAAAG,15000 a.u.
CTAACGAAGGTTTGGTTTGTGGGTGACAAGCCAAGT,3790 a.u.
TGGCAACAGAGAAAGCACGCTTGTAGAACCAACCTT,7240 a.u.
CAAGCGGAGGAGCAACACGTGGCCCAGCAAAAGGAG,15600 a.u.
CATCATCATCTTCACCACGTGCAAAAAACCTTGTGC,14200 a.u.
GTTCTTGCGATGAGCTGCCCTTGCAAATTTTTCACC,5170 a.u.
TGCGCAACAACTTGGAACGTGGGTGTATGTCTAGAA,12200 a.u.
GTCTTGTCTCATTGGATAGTGGGTGTCCCCACTTCA,5220 a.u.
CGACAGCTGCACCATCACGTGCCGATTGTCCTTATT,16800 a.u.
AGAAGGATGAATTGGAACGTGTTGGCAAGTCTAACC,11700 a.u.
GCGATCCTTTTTTAGCACGTGAACGGTAATAACGGG,12600 a.u.
CTAACGAAGGTTTGGGAAGTGGGTGACAAGCCAAGT,3670 a.u.
TCATACACAATGCGACACATGAAAATACTACTCTTT,5370 a.u.
ATTCCTCGGAGGTAACATGTGCTGCAAAGGCCATGA,11200 a.u.
CTTTCCCGATCTTGAATGGTGGGTGTAGCACATTTG,4340 a.u.
GTTTCTCAGATTCTGCACATGGTACTTGATCTTGGT,11300 a.u.

# Study 3
# Target: Ras GTPase-activating protein-binding protein 1, C-terminal RGG region (G3BP1, Homo sapiens, UniProt Q13283)
# UniProt Q13283, sequence (whole entry, looked up): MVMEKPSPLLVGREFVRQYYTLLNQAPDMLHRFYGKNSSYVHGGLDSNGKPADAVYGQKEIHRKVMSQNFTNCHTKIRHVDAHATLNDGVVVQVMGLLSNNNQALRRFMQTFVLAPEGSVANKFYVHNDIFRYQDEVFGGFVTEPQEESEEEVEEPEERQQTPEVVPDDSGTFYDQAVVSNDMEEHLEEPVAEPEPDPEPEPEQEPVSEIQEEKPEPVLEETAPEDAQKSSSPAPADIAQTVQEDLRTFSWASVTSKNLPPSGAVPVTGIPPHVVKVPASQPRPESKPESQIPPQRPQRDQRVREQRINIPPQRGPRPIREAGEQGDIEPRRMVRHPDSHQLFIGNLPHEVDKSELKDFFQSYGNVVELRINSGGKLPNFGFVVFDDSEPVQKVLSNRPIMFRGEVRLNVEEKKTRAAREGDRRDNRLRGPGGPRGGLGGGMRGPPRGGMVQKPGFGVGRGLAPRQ
# Technique: RNA Bind-n-Seq
# Form: RNA
# Medium: in vitro
# Concentration: 1 µM
# Notes: whole 134-nt RNA, ends assumed
# Added: 150 mM KCl
# Relative to: input library
# Reading: higher = stronger binding
# All sequences stand within: GGGAGUUCUACAGUCCGACGAUC … UGGAAUUCUCGGGUGUCAAGG
Oligonucleotide,log2 enrichment
UGGCCCUGGUGGCAUGCGGGGAGGAAGAGGUGGCCUCAUGGAUCGUGGUGGUCCCGGUGGAAUGUUCAGAGGUGGCCGCGGUGGAGACAG,1.6
UCCUCAAGUCCUGUGCUACACAUCGUAUGUACCGAAUCGGAGGGGAGGAGGGAAAGUAUUAUGUUACGCCGUUCGGAUCUGCACUUCCAG,-0.583
UGGCCCUGGUGGCAUGCGGGGAGGAAGAGGUGGCCUCAUGGAUCGUGGUGGUCCCGGUAGAAUGUUCAGAGGUGGCCGUGGUGGAGACAG,2.12
CUCAAGUCCUGUGCUACACAUCGUAUGUACCGAAUCGGGUUGGUUGGUUGGGGAAAGUAUUAUGUUACGCCGUUCGGAUCUGCACUUCCA,-0.815
GUCCUGUGCUACACAUCGUAUGUACCGAAUCGGGGAAAAAGGGGUUUGGGGAAAGGGGAAAGUAUUAUGUUACGCCGUUCGGAUCUGCAC,3.14
CAAGUCCUGUGCUACACAUCGUAUGUACCGAAUCGGAAAAAGGUUUUUUUGGUGGAAAGUAUUAUGUUACGCCGUUCGGAUCUGCACUUC,-1.93
CACAGACAACACGCACCCACACAGACACAGAGGGAAGGGGUUGGGAUGGGGACCGGGUGCACAGCAGGGCGGGGUAGGACCCCAGCCCCU,0.531
UCCUGUGCUACACAUCGUAUGUACCGAAUCGGGAAAAAAGGGAAAAAAGGAAAAAAGGGAAAGUAUUAUGUUACGCCGUUCGGAUCUGCA,-1.09
UCCUCAAGUCCUGUGCUACACAUCGUAUGUACCGAAUCGGUGGGUGGUGGGGAAAGUAUUAUGUUACGCCGUUCGGAUCUGCACUUCCAG,0.409
UCCUGUGCUACACAUCGUAUGUACCGAAUCGGGUUUGGGUUUUUUUGGGAAAAAAAGGGAAAGUAUUAUGUUACGCCGUUCGGAUCUGCA,-0.283
GCAGGAAGUAAAAACAAAUGGAAAUGCUUCGGAUAGUGGCAGGGGUGGGCGUUGCUAAGGAAAGGGUGGGAUGGGAGUGGGUAAAGAGUU,1.57
AGUCCUGUGCUACACAUCGUAUGUACCGAAUCGGGAAAAGGGGAAAAGGGGAAAAGGAAAGUAUUAUGUUACGCCGUUCGGAUCUGCACU,-0.938
UGGGAGGUGGAUUUUGUUUAUUUUUUUAGCUCAUUUCCAGGUGUGGGAAUUUUUUUUUAAUAUGUGUCAUGAAUAAAGUUGUUUUUGAAA,3.67
UGGGAGGUGGAUUUUGUUUAUUUUUUUAGCUCAUUUCCAGGGGUGGGAAUUUUUUUUUAAUAUGUGGCAUGAAUAAAGUUGUUUUUGAAA,3.28

# Study 4
# Target: Protein C-ets-1 (ETS1, Homo sapiens, UniProt P14921, residues 1-441, Y397A, full length assumed)
# Technique: protein-binding microarray
# Form: double-stranded DNA, one strand shown
# Medium: in vitro
# Concentration: not given
# Notes: k-mer, scored over probes, only values ≥0.25
# Reading: higher = stronger binding
# Residues (chain): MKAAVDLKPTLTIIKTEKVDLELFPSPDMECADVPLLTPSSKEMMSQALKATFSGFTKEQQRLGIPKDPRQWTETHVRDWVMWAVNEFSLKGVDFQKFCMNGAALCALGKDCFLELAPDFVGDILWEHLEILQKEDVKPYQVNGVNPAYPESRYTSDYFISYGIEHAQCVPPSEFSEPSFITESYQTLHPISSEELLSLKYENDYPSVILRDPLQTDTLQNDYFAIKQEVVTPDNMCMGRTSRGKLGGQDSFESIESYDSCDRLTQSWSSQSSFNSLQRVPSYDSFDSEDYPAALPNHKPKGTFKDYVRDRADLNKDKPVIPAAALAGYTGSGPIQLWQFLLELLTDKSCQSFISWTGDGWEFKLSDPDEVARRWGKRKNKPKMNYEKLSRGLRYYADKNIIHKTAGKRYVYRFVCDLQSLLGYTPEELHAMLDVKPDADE
Oligonucleotide,E-score
CAATTCCG,0.283
CAATTATG,0.28
ACATTGTC,0.374
AATGCGCA,0.336
CAACAGCA,0.291
ACCCGCCG,0.305
CTTTGTCA,0.34
GCAAACGC,0.289
GTTTGTCA,0.385
ACCCCTCC,0.31
AACGACAA,0.367
AGGCAAAC,0.318
ACATGTAG,0.284
ATACTGCA,0.253
TGTAACAA,0.257
ACTGCCAA,0.302
CTGCCATA,0.251
CCGGTGTC,0.255
CCGACAAC,0.304
CTTCCGCA,0.319
AATGTCAC,0.273
ATTGTTAC,0.339
ACATGCGC,0.285
GGAAGCAC,0.251
AACGTAAT,0.257

# Study 5
# Target: Histone acetyltransferase KAT6A, winged helix 2, GST fusion (KAT6A, Homo sapiens, UniProt Q92794, residues 85-181)
# Technique: protein binding microarray
# Form: double-stranded DNA, one strand shown
# Medium: in vitro
# Concentration: not given
# Notes: 8-mer, flanks averaged, mean of 2 arrays, mostly near background
# Relative to: not given
# Reading: higher = stronger binding
# Residues (chain): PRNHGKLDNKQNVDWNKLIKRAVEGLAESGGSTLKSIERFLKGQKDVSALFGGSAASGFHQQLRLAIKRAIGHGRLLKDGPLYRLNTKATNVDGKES
Oligonucleotide,E-score
CCAGAGGA,0.0447
AAGATACT,-0.0456
ATTGAGGA,-0.0832
AACAATGT,-0.147
CCAATACC,-0.174
ATCGCATC,-0.0328
CGCTTAGA,-0.142
AATAATAC,0.0585
GACAAGCA,0.0726
TACAGCAA,0.12
ATAAGCCA,-0.114
ACGGCTCG,0.0536
ATGAAACG,-0.0394
ATGGGTGA,-0.0862
ACCGCCAT,0.113
CCTAGACG,-0.0588
AATCTAAA,0.106

# Excerpt of the above (study 3):
Oligonucleotide,log2 enrichment
UCCUCAAGUCCUGUGCUACACAUCGUAUGUACCGAAUCGGUGGGUGGUGGGGAAAGUAUUAUGUUACGCCGUUCGGAUCUGCACUUCCAG,0.409
AGUCCUGUGCUACACAUCGUAUGUACCGAAUCGGGAAAAGGGGAAAAGGGGAAAAGGAAAGUAUUAUGUUACGCCGUUCGGAUCUGCACU,-0.938
GCAGGAAGUAAAAACAAAUGGAAAUGCUUCGGAUAGUGGCAGGGGUGGGCGUUGCUAAGGAAAGGGUGGGAUGGGAGUGGGUAAAGAGUU,1.57
CAAGUCCUGUGCUACACAUCGUAUGUACCGAAUCGGAAAAAGGUUUUUUUGGUGGAAAGUAUUAUGUUACGCCGUUCGGAUCUGCACUUC,-1.93
UCCUGUGCUACACAUCGUAUGUACCGAAUCGGGUUUGGGUUUUUUUGGGAAAAAAAGGGAAAGUAUUAUGUUACGCCGUUCGGAUCUGCA,-0.283
UCCUGUGCUACACAUCGUAUGUACCGAAUCGGGAAAAAAGGGAAAAAAGGAAAAAAGGGAAAGUAUUAUGUUACGCCGUUCGGAUCUGCA,-1.09
